Published values of several laboratories.
Every numbered part comes from another study and shows a few of its results, in no order. Positions count from the first letter of the parent shown.

Series 1
Target: HLA class I histocompatibility antigen, A alpha chain, allele A*26:03 (Homo sapiens, UniProt P04439)
Read-out: peptide-MHC binding
Form: peptide
Concentration: concentration not given
Measurement: binding
TQRKKTLGF: inactive
IQRRGAQFQ: inactive
GYAWIDFDI: inactive
FIYFGKKQY: inactive
SSDDIPPRW: inactive

Series 2
Target: Eukaryotic initiation factor 4A-I (EIF4A1, Homo sapiens, UniProt P60842, residues 1-406, full length assumed)
UniProt P60842, sequence (whole entry, looked up): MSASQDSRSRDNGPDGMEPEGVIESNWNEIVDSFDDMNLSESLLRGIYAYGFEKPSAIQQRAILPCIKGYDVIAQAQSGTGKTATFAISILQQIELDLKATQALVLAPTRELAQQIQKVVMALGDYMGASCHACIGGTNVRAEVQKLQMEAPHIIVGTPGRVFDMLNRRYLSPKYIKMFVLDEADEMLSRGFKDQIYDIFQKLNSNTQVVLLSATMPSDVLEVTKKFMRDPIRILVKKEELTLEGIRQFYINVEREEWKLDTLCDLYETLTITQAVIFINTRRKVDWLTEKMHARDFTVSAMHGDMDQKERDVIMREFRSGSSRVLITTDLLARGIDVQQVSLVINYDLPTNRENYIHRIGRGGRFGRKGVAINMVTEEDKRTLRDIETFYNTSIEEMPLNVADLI
Method: RNA Bind-n-Seq
Form: RNA
Medium: in vitro
Concentration: 90 pmol
Notes: 4-mer, random 30-nt RNA, single round
Added: 3 µM iPr-DMDA-PatA, 2 mM ADP, 2 mM phosphate
Baseline: input library
Reading: higher = stronger binding
Measurement: 4-mer enrichment
GUGA: 1.02 fold
AGUA: 1.24 fold
ACUC: 1.07 fold
CAGC: 0.834 fold
UGUC: 0.922 fold
GGUG: 0.716 fold
ACCG: 0.96 fold
GUUA: 1.07 fold

Series 3
Target: CCND3, cyclin fold, Cln2 fusion (human)
Method: yeast growth competition, sequencing
Medium: yeast
Notes: weak parent motif
Baseline: not given
Reading: higher = stronger binding
Measurement: normalised enrichment score
Parent: viral docking peptide; YKVKRRLVFGADD
YKVKRRDVFGADD [L7D]: 0.218
YKVKRRLVFFADD [G10F]: -0.224
YKVKRRLVFGACD [D12C]: 0.14
YKMKRRLVFGADD [V3M]: 0.546
YKVKRRLWFGADD [V8W]: -0.00469
YKVKRRLDFGADD [V8D]: 1.25
YKVKRRHVFGADD [L7H]: -0.124
YKVKIRLVFGADD [R5I]: 0.295
YKVKRRLVFGMDD [A11M]: 0.177
YKVKKRLVLGADD [R5K F9L]: 0.237
YKVKRRLVFIADD [G10I]: -0.0638
YKVSRRLVFGADD [K4S]: 0.225
YKVKRRLVFGQDD [A11Q]: -0.223
YKVKRFLVFGADD [R6F]: 0.12
YKWKRRLVFGADD [V3W]: -0.382
YKVKRRIVFGADD [L7I]: 0.26

Series 4
Target: Histone acetyltransferase KAT6A, winged helix 1, GST fusion (KAT6A, Homo sapiens, UniProt Q92794, residues 1-85)
Method: protein binding microarray
Form: double-stranded DNA, one strand shown
Medium: in vitro
Concentration: not given
Notes: 8-mer, flanks averaged, mean of 2 arrays, mostly near background
Baseline: not given
Reading: higher = stronger binding
Measurement: E-score
Residues (chain): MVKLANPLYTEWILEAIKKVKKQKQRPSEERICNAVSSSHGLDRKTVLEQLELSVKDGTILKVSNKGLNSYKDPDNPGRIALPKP
ACAATAAC: -0.0939
ATGGGCAG: -0.0813
AAAGCTAA: -0.115
ATCGAACA: -0.0988
CCAGACAC: -0.319
CCTCCTCG: -0.108
CTGCATGA: -0.219
AGCAGATA: -0.0598

Repeated from above (series 3):
YKMKRRLVFGADD [V3M]: 0.546
YKVKRRLWFGADD [V8W]: -0.00469
YKVKRRLDFGADD [V8D]: 1.25
YKVKRRHVFGADD [L7H]: -0.124
YKVKIRLVFGADD [R5I]: 0.295
